Experimental data of several laboratories.
Compare with care: the assays were run in different laboratories.
Organism: Escherichia coli

| Structure (SMILES) | test | system | conditions | MIC |
| --- | --- | --- | --- | --- |
| CCCCCCCCCc1nc2cc(Cl)ccc2c(=O)n1CCN | – | MG1655 | – | > 100 µM |
| COc1c(NC(=O)c2ccc(NC(=O)[C@H](Cc3c[nH]nn3)NC(=O)c3ccc(NC(=O)/C(C)=C/c4ccc(O)cc4)cc3)cc2)ccc(C(=O)Nc2ccc(C(=O)O)c(O)c2)c1O | broth microdilution | ciprofloxacin-resistant | – | 0.5 µg/mL |
| CC1(C)[C@H](NC(=O)/C(=N\OCc2c(Cl)cccc2Cl)c2csc(N)n2)C(=O)N1OS(=O)(=O)O | agar dilution | 16-1, ESBL-producing | – | 0.5 µg/mL |
| c1ccc(CSc2nc3ccccc3cc2CNCCC2CCN(C3CCCC3)CC2)cc1 | microbial growth, broth dilution | – | – | 64 µg/mL |
| CC(C)C[C@@H]1NC(=O)[C@@H](CC(C)C)NC(=O)[C@H](CCN)NC(=O)[C@@H](NC(=O)[C@H](CCN)NC(=O)[C@@H](NC(=O)CN=[N+]=[N-])[C@@H](C)O)CCNC(=O)[C@H]([C@@H](C)O)NC(=O)[C@H](CCN)NC(=O)[C@H](CCN)NC1=O | broth microdilution | ATCC 35218, cation-adjusted Mueller-Hinton broth | 18 to 20 h, 37 °C, 0.002% polysorbate 80 | 64 µg/mL |
| CC[C@H]1OC(=O)[C@H](C)[C@@H](OC(=O)c2ccc(N)cc2)[C@H](C)[C@@H](O[C@@H]2O[C@H](C)C[C@H](N(C)C)[C@H]2O)[C@](C)(OC)C[C@@H](C)C(=O)[C@H](C)[C@@H](O)[C@]1(C)O | – | lpxC | – | > 32 µg/mL |
| CCC(CC)c1cc(CCN2CCCN(S(=O)(=O)c3ccc(F)cc3)CC2)nc(-c2ccccn2)n1 | microbial growth, broth dilution | ATCC25922 | – | > 64 µg/mL |
| CC(CC(=O)O)c1nn(C)c2nc(N)[nH]c(=O)c2c1=O (centres unmarked) | microbial growth, broth dilution | BW25113 | 18 h | > 100 µg/mL |
| CCOc1c(NC(=O)c2ccc(NC(=O)c3ccc(NC(=O)[C@H](Cc4c[nH]nn4)NC(=O)c4ccc(NC(=O)/C(C)=C/c5ccc(O)cc5)cc4)cc3)c(OC)c2O)ccc(C(=O)O)c1O | broth microdilution | DSM 1116 | – | 0.031 µg/mL |
| C#CCOc1ccc(CN[C@@]2(C)C[C@H](O[C@H]3[C@H](Oc4c5cc6cc4Oc4ccc(cc4Cl)[C@@H](O)[C@@H](NC(=O)[C@@H](CC(C)C)NC)C(=O)N[C@@H](CC(N)=O)C(=O)N[C@H]6C(=O)N[C@H]4C(=O)N[C@H](C(=O)N[C@H](C(=O)N[C@@H](CCCNC(=N)N)C(N)=O)c6cc(O)cc(O)c6-c6cc4ccc6O)[C@H](O)c4ccc(c(Cl)c4)O5)O[C@H](CO)[C@@H](O)[C@@H]3O)O[C@@H](C)[C@H]2O)cc1OC | broth microdilution | ATCC 35218, cation-adjusted Mueller-Hinton broth | 18 to 20 h, 37 °C, 0.002% polysorbate 80 | 8 µg/mL |
| CC[C@H](C)[C@H](NC(=O)[C@@H](CCCNC(=N)N)NC(=O)[C@H](CCCNC(=N)N)NC(=O)[C@@H]1CCCN1C(=O)[C@@H]1CCCN1C(=O)[C@H](CCCNC(=N)N)NC(=O)[C@@H]1CCCN1C(=O)[C@H](CCCNC(=N)N)NC(=O)[C@@H]1CCCN1C(=O)[C@H](CCCNC(=N)N)NC(=O)[C@H](Cc1ccc(O)cc1)NC(=O)[C@@H]1CCCN1C(=O)[C@@H]1CCCN1C(=O)[C@H](CCCCN)NC(=O)[C@H](CC(=O)O)NC(=O)[C@@H](N)C(C)C)C(=O)N[C@@H](Cc1ccc(O)cc1)C(=O)N[C@@H](CC(N)=O)C(=O)N[C@H](CCCNC(=N)N)C(N)=O | broth microdilution | BW25113 | 18 h, 37 °C, 25% MHB2 | 8 µg/mL |
| COc1ccc(/N=N/C(=S)N2CCCC2)cc1 | microbial growth, broth dilution | ATCC 8739, ATCC8739 | 24 h | > 50 µM |
| Cn1nc(CNc2nnn[nH]2)c(=O)c2c(=O)[nH]c(N)nc21 | microbial growth, broth dilution | BW25113 | 18 h | > 100 µg/mL |
| N=C(N)NCCC[C@@H]1NC(=O)[C@H](CCCNC(=N)N)NC(=O)[C@@H](CCCNC(=N)N)NC(=O)[C@H](C(c2ccccc2)c2ccccc2)NC(=O)[C@H](C(c2ccccc2)c2ccccc2)NC(=O)[C@H](C(c2ccccc2)c2ccccc2)NC(=O)[C@H](CCCNC(=N)N)NC1=O | – | ATCC 25922 | – | 16 µg/mL |
| C/C(=C\c1ccc(O)cc1)C(=O)Nc1ccc(C(=O)N[C@@H](Cc2c[nH]nn2)C(=O)Nc2ccc(C(=O)Nc3ccc(C(=O)Nc4ccc(C(=O)O)c(O)c4)c(O)c3)cc2)cc1 | broth microdilution | ciprofloxacin-sensitive | – | 0.25 µg/mL |
| C#CCNC(=O)C(C)(C)O/N=C(\C(=O)N[C@@H]1C(=O)N(S(=O)(=O)O)[C@H]1C)c1csc(N)n1 | microbial growth, agar dilution | ATCC25 | – | 2 µg/mL |
| CC[C@H](C)[C@H](NC(=O)[C@H](CC(N)=O)NC(=O)[C@H](CCC(N)=O)NC(=O)[C@H](CC(C)C)NC(=O)[C@@H](NC(=O)[C@H](Cc1ccccc1)NC(=O)[C@H](Cc1ccc(O)cc1)NC(=O)[C@H](CO)NC(=O)[C@H](CS)NC(=O)[C@H](CC(C)C)NC(=O)[C@H](CCCCN)NC(=O)[C@H](CCCCN)NC(=O)[C@H](CCCNC(=N)N)NC(=O)[C@H](CCCNC(=N)N)NC(=O)[C@H](CS)NC(=O)[C@H](CCCNC(=N)N)NC(=O)[C@H](CCCCN)NC(=O)[C@H](CCCNC(=N)N)NC(=O)[C@H](CCCCN)NC(=O)[C@H](Cc1ccccc1)NC(=O)[C@@H](N)CCCNC(=N)N)[C@@H](C)CC)C(=O)N[C@@H](CC(N)=O)C(=O)N[C@@H](Cc1ccccc1)C(=O)N[C@@H](CCCNC(=N)N)C(=O)N[C@@H](CC(C)C)C(=O)N[C@@H](CCCNC(=N)N)C(=O)N[C@@H](CCCCN)C(=O)NCC(=O)N[C@@H](CCCCN)C(=O)O | broth microdilution | ATCC 25922 | 16 h, 37 °C, cation-adjusted Mueller-Hinton broth | 64 µg/mL |
| COC(C(N)=O)C(NC(=O)c1ccc(NC(=O)c2ccc(C#N)cc2)cc1)C(=O)Nc1ccc(C(=O)Nc2ccc(C(=O)Nc3ccc(C(=O)O)cc3)c(O)c2OC(C)C)cc1 (centres unmarked) | – | BW25113 WT | – | 0.16 µg/mL |

| Structure (SMILES) | test | system | conditions | MIC |
| --- | --- | --- | --- | --- |
| CC[C@H]1OC(=O)[C@H](C)[C@@H](OC(=O)Cc2c(F)cccc2F)[C@H](C)[C@@H](O[C@@H]2O[C@H](C)C[C@H](N(C)C)[C@H]2O)[C@](C)(OC)C[C@@H](C)C(=O)[C@H](C)[C@@H](O)[C@]1(C)O | – | lpxC | – | 32 µg/mL |
| c1ccc(CN2CCOCCOCCN(CCCCCCCCN3CCOCCOCCN(CCCCCCCCN4CCOCCOCCN(Cc5ccccc5)CCOCCOCC4)CCOCCOCC3)CCOCCOCC2)cc1 | – | tetracycline-resistant (pBR322) | – | 250 µM |
| COc1ccc(O)c(/C=N/[C@@H]2CCCC[C@@H]2/N=C/c2c(O)ccc3ccc(OC)cc23)c1 | microbial growth, broth dilution | – | – | > 40 µM |
| CNC(C)C1CCC(N)C(OC2C(N)CC(N)C(OC3OCC(C)(O)C(NC)C3O)C2O)O1 (centres unmarked) | microbial growth, broth dilution | 25922 | – | 1 µM |
| COc1c(NC(=O)c2ccc(NC(=O)[C@H](Cc3c[nH]nn3)NC(=O)c3ccc(NC(=O)/C(C)=C/c4ccc(O)cc4)cc3)cc2)ccc(C(=O)Nc2ccc(C(=O)O)cc2)c1O | broth microdilution | DSM 1116 | – | 0.25 µg/mL |
| CCCCCCCCCC(=O)Oc1c(C)c(OC)c2c(/C=C/c3ccccc3)c(CCCCCCCC)c(=O)oc2c1C | microbial growth, broth dilution | ATCC25922 | – | 5000 µg/mL |
| CCCCCCCCCCn1cc[n+](CCCCCCCCOc2cc(OCCCCCCCC[n+]3ccn(CCCCCCCCCC)c3)cc(OCCCCCCCC[n+]3ccn(CCCCCCCCCC)c3)c2)c1.[Br-].[Br-].[Br-] | – | MC4100 | – | 8 µM |
| COc1ccc2ccc(O)c(/C=N/[C@H]3CCCC[C@H]3/N=C/c3cc(F)ccc3O)c2c1 | microbial growth, broth dilution | – | clinical isolate | > 40 µM |
| CC[C@H]1OC(=O)[C@H](C)[C@@H](OC(=O)Cc2ccc(C(F)(F)F)cc2)[C@H](C)[C@@H](O[C@@H]2O[C@H](C)C[C@H](N(C)C)[C@H]2O)[C@](C)(OC)C[C@@H](C)C(=O)[C@H](C)[C@@H](O)[C@]1(C)O | – | tolC | – | 16 µg/mL |
| C/C(=C\c1ccc(O)cc1)C(=O)Nc1ccc(C(=O)N[C@@H](Cc2c[nH]nn2)C(=O)Nc2ccc(C(=O)Nc3ccc(C(=O)Nc4ccc(C(=O)O)cc4)c(O)c3)cc2)cc1 | broth microdilution | BW25113 | – | 0.063 µg/mL |
| CC[C@H]1OC(=O)[C@H](C)[C@@H](OC(=O)Cc2cccc([N+](=O)[O-])c2)[C@H](C)[C@@H](O[C@@H]2O[C@H](C)C[C@H](N(C)C)[C@H]2O)[C@](C)(OC)C[C@@H](C)C(=O)[C@H](C)[C@@H](O)[C@]1(C)O | microbial growth | ATCC25922 | – | > 32 µg/mL |
| COc1cc(C(=O)O)ccc1NC(=O)c1ccc(NC(=O)c2ccc(NC(=O)[C@H](Cc3c[nH]nn3)NC(=O)c3ccc(NC(=O)/C(C)=C/c4ccc(O)cc4)cc3)cc2)c(OC)c1O | broth microdilution | ciprofloxacin-sensitive | – | 0.5 µg/mL |
| CC[C@H]1OC(=O)[C@H](C)[C@@H](OC(=O)Cc2cccc(Cl)c2)[C@H](C)[C@@H](O[C@@H]2O[C@H](C)C[C@H](N(C)C)[C@H]2O)[C@](C)(OC)C[C@@H](C)C(=O)[C@H](C)[C@@H](O)[C@]1(C)O | microbial growth | ATCC25922 | – | > 32 µg/mL |
| CCOc1c(NC(=O)c2ccc(NC(=O)[C@H](Cc3c[nH]nn3)NC(=O)c3ccc(NC(=O)/C(C)=C/c4ccc(O)cc4)cc3)cc2)ccc(C(=O)Nc2ccc(C(=O)O)c(O)c2OC)c1O | broth microdilution | ciprofloxacin-resistant | – | 0.25 µg/mL |
| CCCCCC[N+](C)(C)CCCCOc1cc(OCCCC[N+](C)(C)CCCCCC)cc(OCCCC[N+](C)(C)CCCCCC)c1.[Br-].[Br-].[Br-] | – | MC4100 | – | 250 µM |
| COc1cc(C(=O)O)ccc1NC(=O)c1ccc(NC(=O)c2ccc(NC(=O)[C@H](Cc3c[nH]nn3)NC(=O)c3ccc(NC(=O)/C(C)=C/c4ccc(O)cc4)cc3)cc2)cc1O | broth microdilution | DSM 1116 | – | 0.125 µg/mL |
| CC(=O)NC[C@H]1CN(c2ccc(N3CCN(C(=O)CN)CC3)c(F)c2)C(=O)O1 | microbial growth, broth dilution | K12, MG1655 | – | > 200 µM |

For quick reference, copied from above:
| Structure (SMILES) | test | system | conditions | MIC |
| --- | --- | --- | --- | --- |
| COc1cc(C(=O)O)ccc1NC(=O)c1ccc(NC(=O)c2ccc(NC(=O)[C@H](Cc3c[nH]nn3)NC(=O)c3ccc(NC(=O)/C(C)=C/c4ccc(O)cc4)cc3)cc2)cc1O | broth microdilution | DSM 1116 | – | 0.125 µg/mL |
| COc1ccc(/N=N/C(=S)N2CCCC2)cc1 | microbial growth, broth dilution | ATCC 8739, ATCC8739 | 24 h | > 50 µM |
| CCCCCCCCCc1nc2cc(Cl)ccc2c(=O)n1CCN | – | MG1655 | – | > 100 µM |
